Experimental data of several laboratories.
Protocols differ between the studies behind these lines. Values joined by “and” are separate records of one study, mostly repeats; a detail may differ. ± marks the error that the study gave.
Abl1 SH2 domain: Tyrosine-protein kinase ABL1, SH2 domain (Abl1, Mus musculus, UniProt P00520)
Sequence of UniProt P00520 (whole entry, looked up): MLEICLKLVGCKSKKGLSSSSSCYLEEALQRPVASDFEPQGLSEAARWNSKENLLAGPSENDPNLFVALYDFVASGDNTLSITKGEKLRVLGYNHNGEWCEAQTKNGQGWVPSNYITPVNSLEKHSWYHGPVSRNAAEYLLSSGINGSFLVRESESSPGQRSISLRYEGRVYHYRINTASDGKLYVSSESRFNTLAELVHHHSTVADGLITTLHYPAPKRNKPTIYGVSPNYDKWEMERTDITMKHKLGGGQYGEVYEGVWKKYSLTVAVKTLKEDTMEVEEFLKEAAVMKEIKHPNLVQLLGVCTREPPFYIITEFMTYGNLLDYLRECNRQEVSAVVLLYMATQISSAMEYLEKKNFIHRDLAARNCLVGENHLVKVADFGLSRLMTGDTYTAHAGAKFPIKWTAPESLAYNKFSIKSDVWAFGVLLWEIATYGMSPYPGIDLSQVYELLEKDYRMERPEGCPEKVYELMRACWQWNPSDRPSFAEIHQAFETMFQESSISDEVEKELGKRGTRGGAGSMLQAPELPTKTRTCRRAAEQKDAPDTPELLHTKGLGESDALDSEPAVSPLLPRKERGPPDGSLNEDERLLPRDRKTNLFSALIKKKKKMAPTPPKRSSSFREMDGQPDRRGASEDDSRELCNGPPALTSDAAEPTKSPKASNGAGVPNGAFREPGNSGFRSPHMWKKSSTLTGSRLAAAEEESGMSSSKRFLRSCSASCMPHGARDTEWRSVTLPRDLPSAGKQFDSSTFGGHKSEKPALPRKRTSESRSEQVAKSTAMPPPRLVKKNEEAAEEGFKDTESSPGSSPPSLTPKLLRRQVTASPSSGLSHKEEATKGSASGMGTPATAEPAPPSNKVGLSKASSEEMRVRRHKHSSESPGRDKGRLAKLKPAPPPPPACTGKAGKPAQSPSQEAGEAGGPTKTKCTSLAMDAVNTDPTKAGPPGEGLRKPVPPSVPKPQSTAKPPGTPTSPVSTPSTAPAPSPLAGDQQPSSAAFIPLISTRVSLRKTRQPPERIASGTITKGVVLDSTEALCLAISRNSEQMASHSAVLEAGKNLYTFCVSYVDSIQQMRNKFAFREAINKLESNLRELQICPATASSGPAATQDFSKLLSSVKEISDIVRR
MTAP: S-methyl-5'-thioadenosine phosphorylase (MTAP, Homo sapiens, UniProt Q13126)
Sequence of UniProt Q13126 (whole entry, looked up): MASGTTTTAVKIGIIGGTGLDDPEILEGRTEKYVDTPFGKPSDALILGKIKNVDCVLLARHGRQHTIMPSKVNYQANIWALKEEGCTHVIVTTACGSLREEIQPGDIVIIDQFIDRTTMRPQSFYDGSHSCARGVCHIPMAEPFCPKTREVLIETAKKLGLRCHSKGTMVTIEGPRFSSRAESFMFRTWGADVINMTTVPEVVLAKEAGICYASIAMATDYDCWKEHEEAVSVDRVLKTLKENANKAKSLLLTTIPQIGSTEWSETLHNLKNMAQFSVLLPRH
HSP90AA1: Heat shock protein HSP 90-alpha (HSP90AA1, Homo sapiens, UniProt P07900)
Cyclic nucleotide-gated potassium channel: Cyclic nucleotide-gated potassium channel (Spirochaeta thermophila, UniProt G0GA88)
CYP2A6: Cytochrome P450 2A6 (CYP2A6, Homo sapiens, UniProt P11509)
Sequence of UniProt P11509 (whole entry, looked up): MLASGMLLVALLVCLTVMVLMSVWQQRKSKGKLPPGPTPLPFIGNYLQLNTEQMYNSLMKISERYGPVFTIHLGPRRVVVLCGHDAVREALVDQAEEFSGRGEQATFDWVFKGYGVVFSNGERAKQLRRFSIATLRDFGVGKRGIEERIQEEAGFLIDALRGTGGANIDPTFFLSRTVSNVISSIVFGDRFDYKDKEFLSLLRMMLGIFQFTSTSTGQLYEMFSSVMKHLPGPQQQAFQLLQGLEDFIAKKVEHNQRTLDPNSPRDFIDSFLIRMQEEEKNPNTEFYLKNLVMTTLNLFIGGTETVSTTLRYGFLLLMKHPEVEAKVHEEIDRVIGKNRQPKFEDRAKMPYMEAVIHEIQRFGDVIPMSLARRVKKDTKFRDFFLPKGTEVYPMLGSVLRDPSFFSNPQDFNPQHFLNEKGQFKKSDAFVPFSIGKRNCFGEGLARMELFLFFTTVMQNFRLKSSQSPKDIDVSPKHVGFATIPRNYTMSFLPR
B1: α-TTP F169D; sequence looked up; chain MAEARSQPSAGPQLNALPDHSPLLQPGLAALRRRAREAGVPLAPLPLTDSFLLRFLRARDFDLDLAWRLLKNYYKWRAECPEISADLHPRSIIGLLKAGYHGVLRSRDPTGSKVLIYRIAHWDPKVFTAYDVFRVSLITSELIVQEVETQRNGIKAIFDLEGWQFSHADQITPSVAKKIAAVLTDSFPLKVRGIHLINEPVIFHAVFSMIKPFLTEKIKERIHMHGNNYKQSLLQHFPDILPLEYGGEEFSMEDICQEWTNFIMKSEDYLSSISESIQ
B2: α-TTP I202D/M209D; sequence looked up; chain MAEARSQPSAGPQLNALPDHSPLLQPGLAALRRRAREAGVPLAPLPLTDSFLLRFLRARDFDLDLAWRLLKNYYKWRAECPEISADLHPRSIIGLLKAGYHGVLRSRDPTGSKVLIYRIAHWDPKVFTAYDVFRVSLITSELIVQEVETQRNGIKAIFDLEGWQFSHAFQITPSVAKKIAAVLTDSFPLKVRGIHLINEPVDFHAVFSDIKPFLTEKIKERIHMHGNNYKQSLLQHFPDILPLEYGGEEFSMEDICQEWTNFIMKSEDYLSSISESIQ
B3: α-TTP F169A; sequence looked up; chain MAEARSQPSAGPQLNALPDHSPLLQPGLAALRRRAREAGVPLAPLPLTDSFLLRFLRARDFDLDLAWRLLKNYYKWRAECPEISADLHPRSIIGLLKAGYHGVLRSRDPTGSKVLIYRIAHWDPKVFTAYDVFRVSLITSELIVQEVETQRNGIKAIFDLEGWQFSHAAQITPSVAKKIAAVLTDSFPLKVRGIHLINEPVIFHAVFSMIKPFLTEKIKERIHMHGNNYKQSLLQHFPDILPLEYGGEEFSMEDICQEWTNFIMKSEDYLSSISESIQ
B4: α-TTP F165D/M209D; sequence looked up; chain MAEARSQPSAGPQLNALPDHSPLLQPGLAALRRRAREAGVPLAPLPLTDSFLLRFLRARDFDLDLAWRLLKNYYKWRAECPEISADLHPRSIIGLLKAGYHGVLRSRDPTGSKVLIYRIAHWDPKVFTAYDVFRVSLITSELIVQEVETQRNGIKAIFDLEGWQDSHAFQITPSVAKKIAAVLTDSFPLKVRGIHLINEPVIFHAVFSDIKPFLTEKIKERIHMHGNNYKQSLLQHFPDILPLEYGGEEFSMEDICQEWTNFIMKSEDYLSSISESIQ
B5: Pcf11 CID D117K; chain DTEVIVKDFNSILEELTFNSRPIITTLTKLAEENISCAQYFVDAIESRIEKCMPKQKLYAFYALDSICKNVGSPYTIYFSRNLFNLYKRTYLLVDNTTRTKLINMFKLWLNPNKTGLPLFEGSALEKIEQFLIKAS
Sequence of UniProt P33424 (whole entry, looked up): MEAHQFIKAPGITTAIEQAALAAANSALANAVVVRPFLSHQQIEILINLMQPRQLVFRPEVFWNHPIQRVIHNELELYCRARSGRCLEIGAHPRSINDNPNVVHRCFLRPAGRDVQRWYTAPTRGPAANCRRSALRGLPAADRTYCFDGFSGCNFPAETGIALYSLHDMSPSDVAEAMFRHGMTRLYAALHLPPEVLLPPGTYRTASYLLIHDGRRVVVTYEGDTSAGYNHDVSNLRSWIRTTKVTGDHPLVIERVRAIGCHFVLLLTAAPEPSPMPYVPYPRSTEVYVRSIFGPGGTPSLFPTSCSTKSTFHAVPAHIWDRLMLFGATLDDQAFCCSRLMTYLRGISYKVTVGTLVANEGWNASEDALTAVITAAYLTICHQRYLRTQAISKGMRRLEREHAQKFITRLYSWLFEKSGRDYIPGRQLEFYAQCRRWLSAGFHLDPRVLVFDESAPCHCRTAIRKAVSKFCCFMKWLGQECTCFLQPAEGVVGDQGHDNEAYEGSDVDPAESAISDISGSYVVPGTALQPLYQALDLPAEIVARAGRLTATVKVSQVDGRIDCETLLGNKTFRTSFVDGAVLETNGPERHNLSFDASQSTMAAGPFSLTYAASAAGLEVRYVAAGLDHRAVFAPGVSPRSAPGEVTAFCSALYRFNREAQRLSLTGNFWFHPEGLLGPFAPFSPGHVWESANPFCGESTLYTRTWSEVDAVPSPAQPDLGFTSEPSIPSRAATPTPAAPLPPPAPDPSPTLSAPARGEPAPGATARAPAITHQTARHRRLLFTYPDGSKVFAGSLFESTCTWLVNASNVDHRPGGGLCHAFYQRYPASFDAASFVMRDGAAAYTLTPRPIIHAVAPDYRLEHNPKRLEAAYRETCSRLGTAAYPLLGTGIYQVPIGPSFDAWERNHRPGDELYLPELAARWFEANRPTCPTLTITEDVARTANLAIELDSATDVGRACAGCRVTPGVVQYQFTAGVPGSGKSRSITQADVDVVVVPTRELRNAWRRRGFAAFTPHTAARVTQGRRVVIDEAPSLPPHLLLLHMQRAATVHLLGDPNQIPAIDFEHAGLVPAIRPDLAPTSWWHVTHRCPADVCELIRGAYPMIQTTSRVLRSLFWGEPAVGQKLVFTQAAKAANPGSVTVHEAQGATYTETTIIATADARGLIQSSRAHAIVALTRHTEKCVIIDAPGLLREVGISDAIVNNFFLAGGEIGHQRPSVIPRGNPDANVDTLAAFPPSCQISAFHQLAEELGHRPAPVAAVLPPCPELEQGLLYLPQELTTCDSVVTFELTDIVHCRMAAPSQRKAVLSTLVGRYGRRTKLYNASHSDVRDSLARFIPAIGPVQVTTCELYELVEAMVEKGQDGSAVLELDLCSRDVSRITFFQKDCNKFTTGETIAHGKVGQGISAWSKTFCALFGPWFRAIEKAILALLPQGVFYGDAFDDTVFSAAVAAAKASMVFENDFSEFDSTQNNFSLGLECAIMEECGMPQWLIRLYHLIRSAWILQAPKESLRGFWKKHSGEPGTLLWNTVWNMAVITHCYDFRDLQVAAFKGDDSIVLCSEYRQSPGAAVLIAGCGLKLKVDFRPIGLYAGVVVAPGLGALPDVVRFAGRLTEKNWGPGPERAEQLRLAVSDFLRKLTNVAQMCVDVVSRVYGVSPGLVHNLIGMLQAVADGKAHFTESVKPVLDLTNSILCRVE
Sequence of UniProt P20449 (whole entry, looked up): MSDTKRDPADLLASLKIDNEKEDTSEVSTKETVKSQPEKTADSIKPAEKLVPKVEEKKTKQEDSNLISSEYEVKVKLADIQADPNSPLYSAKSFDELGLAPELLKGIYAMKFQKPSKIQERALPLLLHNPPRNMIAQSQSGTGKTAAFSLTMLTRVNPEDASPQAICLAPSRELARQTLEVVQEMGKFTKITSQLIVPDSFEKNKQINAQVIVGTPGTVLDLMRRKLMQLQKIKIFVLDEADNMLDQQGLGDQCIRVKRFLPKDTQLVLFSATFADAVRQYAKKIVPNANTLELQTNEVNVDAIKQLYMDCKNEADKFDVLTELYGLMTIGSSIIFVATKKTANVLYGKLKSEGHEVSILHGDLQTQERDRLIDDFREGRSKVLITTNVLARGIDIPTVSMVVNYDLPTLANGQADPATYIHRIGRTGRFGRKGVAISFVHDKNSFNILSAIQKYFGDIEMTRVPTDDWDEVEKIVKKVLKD
Sequence of UniProt Q86SQ9 (whole entry, looked up): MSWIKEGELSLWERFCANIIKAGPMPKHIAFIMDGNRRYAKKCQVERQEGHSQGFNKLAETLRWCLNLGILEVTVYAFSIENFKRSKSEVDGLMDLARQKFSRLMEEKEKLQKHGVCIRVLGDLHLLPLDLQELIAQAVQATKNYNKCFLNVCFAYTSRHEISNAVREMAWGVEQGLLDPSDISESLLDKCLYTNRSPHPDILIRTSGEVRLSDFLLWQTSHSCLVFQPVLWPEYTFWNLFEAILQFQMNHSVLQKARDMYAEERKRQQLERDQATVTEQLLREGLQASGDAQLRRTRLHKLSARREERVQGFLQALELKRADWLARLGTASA
Sequence of UniProt Q15126 (whole entry, looked up): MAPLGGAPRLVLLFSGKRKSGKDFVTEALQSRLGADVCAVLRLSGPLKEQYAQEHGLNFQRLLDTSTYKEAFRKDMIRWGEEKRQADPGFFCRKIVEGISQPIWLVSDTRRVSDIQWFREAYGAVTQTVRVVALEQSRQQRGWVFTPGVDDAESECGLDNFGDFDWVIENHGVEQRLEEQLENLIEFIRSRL
Sequence of UniProt P61823 (whole entry, unmodified, looked up): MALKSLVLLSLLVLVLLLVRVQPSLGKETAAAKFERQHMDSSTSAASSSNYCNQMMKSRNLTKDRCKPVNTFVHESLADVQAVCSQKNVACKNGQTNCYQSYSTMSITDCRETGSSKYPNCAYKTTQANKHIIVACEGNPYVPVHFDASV

CC(=O)NC1C(O)CC(OC2C(O)C(CO)OC(OC3C(O)C(CO)OC(OC4C(O)C(CO)OC(OC5C(CO)OC(OC6C(CO)OC(O)C(O)C6O)C(O)C5O)C4O)C3NC(C)=O)C2O)(C(=O)O)OC1C(O)C(O)CO (stereo not drawn) — Kd (Ribonuclease pancreatic (RNASE1, Bos taurus, UniProt P61823, A45C); binding; pH 5): 19 µM
B1 (α-TTP F169D) — Kd (alpha-tocopherol transfer protein variants; binding, fluorescence titration; with: NBD-Toc): 0.079 µM
CC(=O)[C@H]1CC[C@H]2[C@@H]3CCC4=CC(=O)CC[C@]4(C)[C@H]3CC[C@]12C — Kd (mouse anti-cortisol Fab 17; native MS titration; 200 mM ammonium acetate; 1.5% DMSO, 0.5% methanol, with: Fab 100 nM): 13 ± 3 µM
Nc1nc2c(c(=O)[nH]1)NC(CNc1ccc(C(=O)N[C@@H](CCC(=O)N[C@@H](CCC(=O)N[C@@H](CCC(=O)N[C@@H](CCC(=O)N[C@@H](CCC(=O)O)C(=O)O)C(=O)O)C(=O)O)C(=O)O)C(=O)O)cc1)CN2 (mixture of isomers) — Kd (Lysine-specific histone demethylase 1A, residues 171-852 (KDM1A, Homo sapiens, UniProt O60341); back-scattering interferometry; N-terminal truncated LSD1): 4.02 ± 0.92 µM
CCCCCCCC(=O)OC[C@H](COP(=O)(O)O[C@@H]1[C@H](O)[C@H](O)[C@@H](OP(=O)(O)O)[C@H](OP(=O)(O)O)[C@H]1O)OC(=O)CCCCCCC — Kd (Abl1 SH2 domain; HSQC NMR titration; SH2 domain, 135 mM KCl): 500 ± 70 µM
Nc1ncnc2c1ncn2[C@@H]1O[C@H](COP(=O)(O)OP(=O)(O)O)[C@@H](O)[C@H]1O — Kd (DBP5 (Saccharomyces cerevisiae, UniProt P20449); ADP binding, stopped-flow competition, FRET; pH 7.5, 25 °C, no Mg2+, EDTA, no RNA, 100 mM KCl, with: mantADP 40 µM): 800 ± 100 µM
O=C(NN=Cc1ccc(C[n+]2ccccc2)cc1)c1ccc2ccc3ccc(C(=O)NN=Cc4ccc(C[n+]5ccccc5)cc4)nc3c2n1 — Kd (telomeric antiparallel G4 DNA; binding, native ESI-MS; 100 mM trimethylammonium acetate; 1 mM KCl): 0.0049 µM
CCCSC[C@H]1N[C@@H](c2c[nH]c3c(N)ncnc23)[C@H](O)[C@@H]1O — Kd (MTAP; binding third site, isothermal titration calorimetry): 0.9 ± 0.6 µM
NC(=O)c1nc(F)c[nH]c1=O — Kd (Non-structural polyprotein pORF1, RNA-dependent RNA polymerase (Hepatitis E virus genotype 1, UniProt P33424); binding, microscale thermophoresis): ~39 µM and 39 µM
CCCC(=O)OC[C@H](COP(=O)(O)O[C@@H]1[C@H](O)[C@H](O)[C@@H](OP(=O)(O)O)[C@H](OP(=O)(O)O)[C@H]1O)OC(=O)CCC — Kd (Abl1 SH2 domain; HSQC NMR titration; SH2 domain, no KCl): 130 ± 1 µM
CC[N+](CC)(CC)CC — Kd (Kcnu1, Slo1 N-terminal chimera (Mus musculus, UniProt O54982); ion current, blocker, cytosolic application; pH 8.5, closed-channel block, with: Ca2+ 0): 2440 ± 640 µM
COc1c(O)cc2cc1C[C@@H](C)C[C@H](OC)[C@H](O)[C@@H](C)/C=C(\C)[C@H](OC(N)=O)[C@@H](OC)CC/C=C(\C)C(=O)N2 — Kd (HSP90AA1; cell-free assay): 0.026 µM
phosphatidylinositol 4,5-bisphosphate — Kd (NF2 (Homo sapiens, UniProt P35240); isothermal titration calorimetry; pH 7.5, 25 °C): 0.65 ± 0.169 µM
Nc1nc2c(nc(SCCNc3ccc([N+](=O)[O-])c4nonc34)n2[C@@H]2O[C@@H]3COP(=O)(O)O[C@@H]3C2O)c(=O)[nH]1 (stereo partly drawn) — Kd (Cyclic nucleotide-gated potassium channel; binding, fluorescence titration; amphipol A8-35; single titration): 2 µM
B2 (α-TTP I202D/M209D) — Kd (alpha-tocopherol transfer protein variants; binding, fluorescence titration; with: NBD-Toc): 0.025 µM
N=C(N)Nc1ccc(OC(=O)c2ccc(NC(=N)N)cc2)cc1 — Kd (RNA with single 5'CAG/3'GAC motif; binding, fluorescence anisotropy competition): 0.06 ± 0.03 µM
CO[C@H]1/C=C\C=C(/C)C(=O)NC2=CC(=O)C(NCCCCCCNC(=S)Nc3ccc(-c4c5ccc(=O)cc-5oc5cc(O)ccc45)c(C(=O)O)c3)=C(C[C@@H](C)C[C@H](OC)[C@H](O)[C@@H](C)/C=C(\C)[C@@H]1OC(N)=O)C2=O — Kd (HSP90AA1; binding, fluorescence polarization; full length protein): 0.509 µM
Nc1ncnc2c1ncn2[C@@H]1O[C@H](COP(=O)(O)OP(=O)(O)O)[C@@H](O)[C@H]1O — Kd (PMVK (Homo sapiens, UniProt Q15126); binding, NMR; pH 6.5): 19 µM
[I-].[K+] — Kd (SLC4A1 (Homo sapiens, UniProt P02730); 36Cl exchange flux, inhibitor, Dixon plot; human red blood cells; pH 12.4 external, 0 °C, internal Cl 295 mM, CAPS buffer): 72900 µM
C[C@]12C=CC(=O)C=C1CC[C@@H]1[C@@H]2[C@@H](O)C[C@@]2(C)[C@H]1CC[C@]2(O)C(=O)CO — Kd (mouse anti-cortisol Fab 17; native MS titration; 200 mM ammonium acetate; 1.5% DMSO, 0.5% methanol, with: Fab 100 nM): 0.026 ± 0.003 µM
C[n+]1cccc2cc(C=NNC(=O)c3ccc4ccc5ccc(C(=O)NN=Cc6ccc7c(ccc[n+]7C)c6)nc5c4n3)ccc21 — Kd (G-quadruplex DNA 22CTA (human); binding, fluorimetric titration; 100 mM KCl buffer; pH 7.2, with: 5'-Cy5-labelled G4 2 nM): 0.0197 ± 0.0032 µM
B3 (α-TTP F169A) — Kd (alpha-tocopherol transfer protein variants; binding, fluorescence titration; with: NBD-Toc): 0.07 µM
c1ccc2ccccc2c1 — Kd (CYP2A6; binding, absorbance; pH 7.4): 2.9 µM
Nc1ccn([C@H]2C[C@H](O)[C@@H](COP(=O)(O)OP(=O)(O)OP(=O)(O)O)O2)c(=O)n1 — Kd (DNA polymerase eta (POLH, Homo sapiens, UniProt Q9Y253); substrate; pH 8.0, 37 °C, pre-steady-state, Mg2+, with: dNTP opposite O2-Me-dT template): 32 ± 15 µM
CCCCCCCCCCCCCCCC(=O)OC[C@H](COP(=O)(O)OC1[C@H](O)[C@H](O)C(OP(=O)(O)O)[C@H](O)[C@H]1O)OC(=O)CCCCCCCCCCCCCCC (stereo partly drawn) — Kd (Golgi phosphoprotein 3 (GOLPH3, Homo sapiens, UniProt Q9H4A6); surface plasmon resonance; DOPC vesicles 3 mol% lipid; pH 7.5, 25 °C): 2.6 ± 0.2 µM
CSC[C@H]1CN(Cc2c[nH]c3c(N)ncnc23)C[C@@H]1O — Kd (MTAP; isothermal titration calorimetry; pH 7.4, 25 °C, apo enzyme, second site set): 0.11 ± 0.0275 µM
CNc1ccccc1C(=O)OC/C(C)=C/CC/C(C)=C/COP(=O)(O)OP(=O)(O)O — Kd (DHDDS, with NgBR (Homo sapiens, UniProt Q86SQ9); binding, tryptophan-MANT FRET; pH 7.5, S1 site, no IPP): 1.06 ± 0.04 µM
Nc1ncnc2c1nc(SCCNc1ccc([N+](=O)[O-])c3nonc13)n2[C@@H]1O[C@@H]2COP(=O)(O)O[C@H]2[C@H]1O — Kd (Cyclic nucleotide-gated potassium channel; binding, fluorescence titration; amphipol A8-35; pH 7.4, room temperature): 0.6 µM
C#Cc1ccc(-c2ccccc2)cc1 — Kd (CYP2A6; binding, absorbance; pH 7.4): 5.4 µM
B4 (α-TTP F165D/M209D) — Kd (alpha-tocopherol transfer protein variants; binding, fluorescence titration; with: NBD-Toc): 0.029 µM
CCCCCCCC(=O)OC[C@H](COP(=O)(O)O[C@@H]1[C@H](O)[C@H](O)[C@@H](OP(=O)(O)O)[C@H](OP(=O)(O)O)[C@H]1O)OC(=O)CCCCCCC — Kd (Pleckstrin homology domain-containing family A member 7 (Homo sapiens, UniProt Q6IQ23); binding, ITC; pH 7.6): 4 µM
B5 (Pcf11 CID D117K) — Kd (Saccharomyces cerevisiae CTD-binding protein; fluorescence anisotropy competition; pH 7.4, second binding event, with: four-heptad Ser2P CTD peptide): 130 µM
CCCC(=O)OCC(COP(=O)(O)OC1C(O)C(O)C(OP(=O)(O)O)C(O)C1O)OC(=O)CCC (stereo not drawn) — Kd (Abl1 SH2 domain; HSQC NMR titration; SH2 domain, no KCl): 700 ± 230 µM

Some of these lines once more:
Nc1nc2c(nc(SCCNc3ccc([N+](=O)[O-])c4nonc34)n2[C@@H]2O[C@@H]3COP(=O)(O)O[C@@H]3C2O)c(=O)[nH]1 (stereo partly drawn) — Kd (Cyclic nucleotide-gated potassium channel; binding, fluorescence titration; amphipol A8-35; single titration): 2 µM
CCCC(=O)OC[C@H](COP(=O)(O)O[C@@H]1[C@H](O)[C@H](O)[C@@H](OP(=O)(O)O)[C@H](OP(=O)(O)O)[C@H]1O)OC(=O)CCC — Kd (Abl1 SH2 domain; HSQC NMR titration; SH2 domain, no KCl): 130 ± 1 µM
